Results of several laboratories.
Parts stem from different laboratories: compare values within a part only. Substitutions count along the parent as printed.

Study 1
Target: CCNB2, cyclin fold, Cln2 fusion (human)
Method: yeast growth competition, sequencing
Medium: yeast
Notes: weak parent motif
Relative to: not given
Direction: higher = stronger binding
Measurement: normalised enrichment score
Starting sequence: INSM1 docking peptide (human); PKAIRKLHFEDEV
PKAIRKLHFKDEV [E10K]: 0.356
PKAIRKLHHEDEV [F9H]: 0.568
PTAIRKLHFEDEV [K2T]: 0.402
PKAIRKLHFEVEV [D11V]: 0.283
PKAIRYLHFEDEV [K6Y]: 0.512
PKAIRSLHFEDEV [K6S]: -0.168
PKAIRKLHFVDEV [E10V]: 0.184
PKAICKLHFEDEV [R5C]: 0.38
PKAIRKLAFEDEV [H8A]: 0.403
PKAIRHLHFEDEV [K6H]: 0.542
PKAIRKLHFQDEV [E10Q]: 0.199
PKAARKLHFEDEV [I4A]: 0.459

Study 2
Target: ABI1, truncated, D143A, DHFR fusion (Arabidopsis thaliana)
Method: DHFR PCA, deep sequencing
Medium: yeast
Notes: methotrexate growth selection, single substitutions
Added: (+)-ABA 0.032 µM
Relative to: wild-type fitted maximum
Direction: higher = stronger binding
Measurement: relative binding score
Starting sequence: PYL1, truncated, DHFR fusion (Arabidopsis thaliana); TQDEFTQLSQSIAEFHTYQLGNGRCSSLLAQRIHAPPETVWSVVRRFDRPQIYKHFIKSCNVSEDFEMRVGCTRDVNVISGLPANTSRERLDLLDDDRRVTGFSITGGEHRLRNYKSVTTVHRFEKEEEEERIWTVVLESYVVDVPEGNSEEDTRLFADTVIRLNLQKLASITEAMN; partner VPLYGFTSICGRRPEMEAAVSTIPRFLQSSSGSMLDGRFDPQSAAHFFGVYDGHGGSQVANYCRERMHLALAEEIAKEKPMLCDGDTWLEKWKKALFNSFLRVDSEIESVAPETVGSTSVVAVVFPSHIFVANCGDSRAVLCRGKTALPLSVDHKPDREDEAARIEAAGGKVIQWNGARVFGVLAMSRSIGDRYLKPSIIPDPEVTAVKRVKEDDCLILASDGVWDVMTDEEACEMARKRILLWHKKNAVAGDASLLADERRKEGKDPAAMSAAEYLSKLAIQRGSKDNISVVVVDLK
I172T: 0.956%
N149T: 51%
E4I: 29.1%
L28H: -0.958%
K116S: 17%
N22W: 3.52%
L112I: -4.8%
T6M: 42.1%
H122S: -0.301%
T86H: 24.2%
E125R: 28.9%
K126G: 57.2%
L94C: -5.58%

Study 3
Target: RNA binding protein fox-1 homolog 2, RRM domain, GST-SBP tag (RBFOX2, Homo sapiens, UniProt O43251-10, residues 100-194)
Method: RNA Bind-n-Seq
Molecule type: RNA
Medium: in vitro
Tested at: 365 nM
Notes: natural RNA segment, single round, ends assumed
Relative to: no-protein control
Direction: higher = stronger binding
Measurement: RBNS enrichment (R)
Shared flanks, not repeated: GGGAGUUCUACAGUCCGACGAUC … UGGAAUUCUCGGGUGCCAA
Residues (chain): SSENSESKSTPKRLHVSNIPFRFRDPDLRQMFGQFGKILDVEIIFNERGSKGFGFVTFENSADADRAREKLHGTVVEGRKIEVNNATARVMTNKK
AUAUAAUAUCUCAUUUAAUAAGUUUAAUACAUACAAAGAUAAUCUAUAUAUUUUACCAAUUUAAUGUGAAUUUUAAAAAAUCCCUAUGCUAUUUAAAAGAAAGAAAAUGU: 0.875
AAAUCCAACAUUCACCUAAGCAAGUAAUUCUUAAAGAUCUUACAGAAACGCAGAGUCAAUCAGGUUUAUAAAGGAAGGCUGAGGGGAGAGAGGAGGCCUGGGGGCCUGGA: 0.557
CUGGCCUCUGCCAUAAUUUGUUGUUCAACUGCUCCCUCCUUCCUGAGGGGCCUCAGGGCUUGUGGGGGGUAGGCUGAGACCCCACCACCAAAGGUUAAGUGAGGUCCCCU: 0.338
CCCAGGCUGGAGUGCAGUGGCUCAAUCUCGGGUCACUGCAACCUCCGCCUCCCGGGUUCAAGUGAUCGUCCUGCCUUAGGCUCCUGAGUAGCUGGGGAUUACAGGUGCCU: 0.29
UUCCCAUGAACUCAGGGAUUUGUUGGAAGAUUCUCUGCAUAAUAGAUAUAUAUGUAUAUAUAUUUAAAUACACAUAUAUAUUGUACAGAAUAAAAAAUGUUUUAUUGGAC: 1.04
AAAAAAUGGGUCUCCUUCUGGGCUCCAGGAUUGUCUCCCCACUCCAGCAUCCCCAAACUGGUACUCCCUGACCCAGGGCCCCAAACCUGGGCUCUUACAGAGCCUCCAUG: 0.823
CUCUCAGCUGGGACAGGAGGUGGCUGCUCAGUCCUAGAGUAGCUCUAUGGGUGAAACCGGCUCUAGUUCUGUCCCCAGCCCCACCCUCUGGUCUCCUACUCUCUGGCCCU: 0.487
CAGAAUUCAACAUUAAAGAUUAAUGUUUAUUUAAACGAACACAUUCCUGCAUUCAGGAUGUGAGGCCAUUUAAUAAAAAGGGCACAAAGCCUGUCAGAGUUUUCAACGGU: 0.403

Study 4
Target: Interferon regulatory factor 3, full length, phosphomimetic (IRF3, Homo sapiens, UniProt Q14653, residues 1-427, S386D/S396D/S398D/S402D/T404D/S405D)
Method: protein-binding microarray
Molecule type: double-stranded DNA, one strand shown
Medium: in vitro
Tested at: 2540 nM top
Notes: 60-bp whole probe
Added: salmon DNA 0.4 mg/ml
Relative to: random background probes
Direction: higher = stronger binding
Measurement: fitted relative affinity
Shared flanks, not repeated: GCCTAGCAC … GTCTTGATTCGCTTGACGCTGCTG
Construct (chain): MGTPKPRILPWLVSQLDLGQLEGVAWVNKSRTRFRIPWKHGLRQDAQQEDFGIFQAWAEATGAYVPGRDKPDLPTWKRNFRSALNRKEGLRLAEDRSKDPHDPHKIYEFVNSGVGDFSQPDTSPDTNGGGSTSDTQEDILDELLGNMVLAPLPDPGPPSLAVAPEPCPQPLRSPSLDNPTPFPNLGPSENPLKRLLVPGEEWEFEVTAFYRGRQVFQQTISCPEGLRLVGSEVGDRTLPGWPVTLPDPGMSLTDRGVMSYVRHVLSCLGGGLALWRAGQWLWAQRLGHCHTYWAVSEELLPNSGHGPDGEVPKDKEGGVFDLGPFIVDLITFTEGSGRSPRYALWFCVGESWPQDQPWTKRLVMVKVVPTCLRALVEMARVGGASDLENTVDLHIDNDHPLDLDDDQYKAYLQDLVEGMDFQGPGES
GACGGTCTCGGTATCGGGACGTGCTAG: 2.04 z-score
TAGAATGTCCTTTCTCCATGGGTGCTA: 4.78 z-score
TTCAGTTTTCCTCTGTCATTGTGCTAG: 2.18 z-score
TCATCTTTTTTTCTTTTACTGTGCTAG: 1.89 z-score
GACGGTTTCCTACTCCTGACGTGCTAG: 6.62 z-score
TTAGGTTTCGAACTGGGTTAGTGCTAG: 2.78 z-score
TTAGATTTCAGTATCGCTTAGTGCTAG: 2.43 z-score
GACGGTCTCCTACGGCTGACGTGCTAG: 0.151 z-score
TCAAGTCTGGGAGATGAAACTGTGCTA: -0.78 z-score
GACGGTATCCTTATCCTGTCGTGCTAG: 5.98 z-score
ATTACTTTAGGTTCCCAGGTGTGCTAG: 1.37 z-score
GTAAATCTTTTTCCCTATTAGTGCTAG: 2.44 z-score
TTAGGTTTCCTATCCCTTTAGTGCTAG: 6.21 z-score
GACGATTTCAGGCTCGAGACGTGCTAG: 0.849 z-score

For quick reference, copied from above (study 4):
GACGGTCTCGGTATCGGGACGTGCTAG: 2.04 z-score
TAGAATGTCCTTTCTCCATGGGTGCTA: 4.78 z-score
TTCAGTTTTCCTCTGTCATTGTGCTAG: 2.18 z-score
